{"data": "Published values collected from several papers", "note": "Every numbered part comes from another study and shows a few of its results, in no order. Substitutions count along the parent as printed.", "chain of UniProt Q9UHD2 (whole entry, looked up)": "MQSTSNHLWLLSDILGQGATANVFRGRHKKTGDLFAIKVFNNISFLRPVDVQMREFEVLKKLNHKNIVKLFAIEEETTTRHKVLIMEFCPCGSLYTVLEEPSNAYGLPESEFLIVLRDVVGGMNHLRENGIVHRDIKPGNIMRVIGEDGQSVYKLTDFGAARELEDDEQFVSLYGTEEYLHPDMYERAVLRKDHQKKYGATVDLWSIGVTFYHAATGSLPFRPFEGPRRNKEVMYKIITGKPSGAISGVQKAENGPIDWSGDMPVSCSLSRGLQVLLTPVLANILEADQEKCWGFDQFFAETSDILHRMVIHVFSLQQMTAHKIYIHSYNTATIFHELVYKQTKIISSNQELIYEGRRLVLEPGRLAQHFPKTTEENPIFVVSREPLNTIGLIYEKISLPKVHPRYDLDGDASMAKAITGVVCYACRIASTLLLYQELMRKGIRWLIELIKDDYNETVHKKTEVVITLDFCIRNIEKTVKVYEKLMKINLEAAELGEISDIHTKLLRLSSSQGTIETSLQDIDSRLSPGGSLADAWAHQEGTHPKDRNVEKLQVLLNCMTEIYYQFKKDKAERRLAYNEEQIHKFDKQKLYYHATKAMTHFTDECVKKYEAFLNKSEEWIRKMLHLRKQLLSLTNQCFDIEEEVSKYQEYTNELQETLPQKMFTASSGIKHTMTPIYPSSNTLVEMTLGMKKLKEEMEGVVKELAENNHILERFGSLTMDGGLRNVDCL"}
{"data": "Study 1", "target": "CEP164, C-terminal peptide (human)", "technique": "DHFR complementation, deep sequencing", "matrix": "yeast", "setting": "single substitutions, model-inferred values", "baseline": "wild type", "direction": "higher = weaker binding", "starting sequence": "PDZK1, PDZ domain 2 (human); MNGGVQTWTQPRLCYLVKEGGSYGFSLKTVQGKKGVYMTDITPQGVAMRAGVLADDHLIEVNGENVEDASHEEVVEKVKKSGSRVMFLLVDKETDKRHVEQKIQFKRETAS; partner HNRVKVYRF"}
{"Variant": "M48F", "binding free energy change": "-0.185 kcal/mol"}
{"Variant": "Q31W", "binding free energy change": "0.0312 kcal/mol"}
{"Variant": "E76R", "binding free energy change": "0.0848 kcal/mol"}
{"Variant": "G51M", "binding free energy change": "1.04 kcal/mol"}
{"Variant": "L88M", "binding free energy change": "-0.108 kcal/mol"}
{"Variant": "K33G", "binding free energy change": "0.437 kcal/mol"}
{"Variant": "G45F", "binding free energy change": "1.49 kcal/mol"}
{"Variant": "G20E", "binding free energy change": "0.0928 kcal/mol"}
{"data": "Study 2", "target": "Protein max, full length (MAX, Homo sapiens, UniProt P61244-2, residues 1-151)", "technique": "protein-binding microarray", "form": "double-stranded DNA, one strand shown", "matrix": "in vitro", "concentration": "not given", "setting": "k-mer, scored over probes, only values ≥0.25", "direction": "higher = stronger binding"}
{"Sequence": "CGTTTTCA", "E-score": 0.251}
{"Sequence": "ACGCACGG", "E-score": 0.276}
{"Sequence": "CCCACGCG", "E-score": 0.467}
{"Sequence": "CAAACACG", "E-score": 0.37}
{"Sequence": "CGCACACG", "E-score": 0.4}
{"Sequence": "ACGCCTTA", "E-score": 0.277}
{"Sequence": "GGGCGCAC", "E-score": 0.258}
{"Sequence": "CCTGCTCC", "E-score": 0.259}
{"data": "Study 3", "Variant": "S42V", "target": "ABI1, truncated, D143A, DHFR fusion (Arabidopsis thaliana)", "technique": "DHFR PCA, deep sequencing", "matrix": "yeast", "setting": "methotrexate growth selection, single substitutions", "baseline": "wild-type fitted maximum", "direction": "higher = stronger binding", "starting sequence": "PYL1, truncated, DHFR fusion (Arabidopsis thaliana); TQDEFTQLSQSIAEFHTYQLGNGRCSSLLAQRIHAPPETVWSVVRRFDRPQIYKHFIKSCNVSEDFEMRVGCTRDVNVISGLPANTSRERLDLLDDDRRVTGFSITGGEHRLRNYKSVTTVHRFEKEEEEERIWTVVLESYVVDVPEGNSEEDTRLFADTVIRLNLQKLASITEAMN"}
{"with": "(+)-ABA 0 µM", "relative binding score [%]": 3.09}
{"with": "(+)-ABA 0.39 µM", "relative binding score [%]": 0.923}
{"with": "(+)-ABA 4.8 µM", "relative binding score [%]": 10.4}
{"with": "(+)-ABA 0.0091 µM", "relative binding score [%]": -2.77}
{"with": "(+)-ABA 710 µM", "relative binding score [%]": 92.8}
{"with": "(+)-ABA 17 µM", "relative binding score [%]": 24.9}
{"data": "Single results of other studies"}
{"Structure (SMILES)": "CS(=O)(=O)c1cc(C2(NC(=O)c3cncc4c3cnn4-c3ccc(F)cc3)CC2)ccn1", "target": "Serine/threonine-protein kinase TBK1 (TBK1, Homo sapiens, UniProt Q9UHD2)", "read-out": "cell-free assay", "technique": "competition with immobilised ligand", "concentration": "1 µM", "measurement": "remaining binding", "value": "94%"}
{"note": "Repeated from above (study 3):"}
{"with": "(+)-ABA 4.8 µM", "relative binding score [%]": 10.4}
{"with": "(+)-ABA 0 µM", "relative binding score [%]": 3.09}
{"with": "(+)-ABA 0.0091 µM", "relative binding score [%]": -2.77}
